Published values of several laboratories.
A part holds a random share of what one study measured. Substitutions count along the parent as printed.

Series 1
Target: CCNE1, cyclin fold, Cln2 fusion (human)
Method: yeast growth competition, sequencing
Sample: yeast
Setting: strong parent motif
Baseline: not given
Direction: higher = stronger binding
Parent: PKMYT1 docking peptide (human); SFEPRNLLSLFED
Substitution | normalised enrichment score
SFEPRNLTSLFED [L8T] | 0.815
SWEPRNLLSLFED [F2W] | 1.37
SFEPGNLLSLFED [R5G] | 1.26
SFEPRNLLSLFEG [D13G] | 1.52
SFEPRNCLSLFED [L7C] | 0.599
SFEPRNPLSLFED [L7P] | 0.274
SAEPRNLLSLFED [F2A] | 0.637
SFEPRRLLSLFED [N6R] | 1.12
SIEPRNLLSLFED [F2I] | 0.219
VFEPRNLLSLFED [S1V] | 2.27
SFEPRNLLSLFEQ [D13Q] | 1.82
SFEPRNLLHLFED [S9H] | 1.65
SFEPRNLLSLFND [E12N] | 2.25
SFEPRGLLSLFED [N6G] | 1.3
SFEIRNLLSLFED [P4I] | -0.0344
SFEPRFLLSLFED [N6F] | 1.48
SFHPRNLLSLFED [E3H] | 2.19
SFEPRNLLSMFED [L10M] | 1.38
SFAPRNLLSLFED [E3A] | 1.92
IFEPRNLLSLFED [S1I] | 1.69
SFEPANLLSLFED [R5A] | 1.19
HFEPRNLLSLFED [S1H] | 1.57
SFEPRNLLSLFFD [E12F] | 1.51
SFEPRNLLSLNED [F11N] | 0.268
SFEPRILLSLFED [N6I] | 1.31

Series 2
Target: Centromere-binding protein 1, full length, His-tagged (CBF1, Saccharomyces cerevisiae, UniProt P17106, residues 1-351)
Sequence of UniProt P17106 (whole entry, looked up): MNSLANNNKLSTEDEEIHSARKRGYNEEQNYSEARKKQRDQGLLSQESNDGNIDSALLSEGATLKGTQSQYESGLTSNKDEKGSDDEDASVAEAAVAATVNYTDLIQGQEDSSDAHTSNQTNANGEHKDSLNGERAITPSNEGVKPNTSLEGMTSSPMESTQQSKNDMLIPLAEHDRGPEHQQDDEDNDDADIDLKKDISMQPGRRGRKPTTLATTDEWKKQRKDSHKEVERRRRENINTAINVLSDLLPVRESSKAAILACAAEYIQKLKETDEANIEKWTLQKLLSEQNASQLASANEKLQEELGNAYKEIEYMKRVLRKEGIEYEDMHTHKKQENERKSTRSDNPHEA
Method: competition protein-binding microarray
Form: double-stranded DNA, one strand shown
Sample: in vitro
Concentration: 2 µM
Setting: whole 60-bp probe, lowest competitor level
Together with: Pho4 competitor, 0.05 µM
Direction: higher = stronger binding
Sequence | fluorescence intensity
TGCGAGATATACCATCACGTGAGGTGGATTTGATCTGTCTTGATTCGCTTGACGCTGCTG | 4760 a.u.
CCGATATGCAGACATCATGTTCCTGTATTTTTTGACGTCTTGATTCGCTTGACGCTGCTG | 85.3 a.u.
AATTGATTCATATGGAACGTGACTCGTCCTCTGTAGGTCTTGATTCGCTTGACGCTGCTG | 483 a.u.
AGTCTTGATTTCTTGCGCATGACGGATTAAATTCTTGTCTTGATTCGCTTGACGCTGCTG | 155 a.u.
CTTCTGTAAATTTGGCGTGTGGGTGGACGCGCCCCGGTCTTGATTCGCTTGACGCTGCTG | 84.2 a.u.
TTAGAGTAGGGAGAGAATGTGACGAAGCCCTTTGTGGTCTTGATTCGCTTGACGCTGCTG | 70.5 a.u.
GTCTTGTCTCATTGTCACGACACTTTCCCCACTTCAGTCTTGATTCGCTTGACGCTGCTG | 211 a.u.
CGTCACCAGCGTCACCACGGGGACCCGCCCCGAAATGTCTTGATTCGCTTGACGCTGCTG | 69.9 a.u.
AAAGCGGTAATTTGTACCGTGGGTGCAGATATCTATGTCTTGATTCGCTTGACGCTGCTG | 59.1 a.u.
GTCGAAAAACCTCCGCACGGCAGAAGTGTTATGCTGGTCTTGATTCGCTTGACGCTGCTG | 72.5 a.u.
GAGATCCAGATGTCGCACGTGACCTAAGTGAGACTGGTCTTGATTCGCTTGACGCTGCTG | 7830 a.u.
CTAACGAAGGTTTGGCCCGTGGGTGACAAGCCAAGTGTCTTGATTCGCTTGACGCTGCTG | 64.1 a.u.
TGCCAAGCGTGGAGGAACGTGTGAATTCCCTAACTAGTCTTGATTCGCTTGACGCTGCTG | 70 a.u.
TCGTCAGGACAAATGAACGTGGTCGATCCTCCGCCGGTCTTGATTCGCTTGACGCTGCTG | 71.6 a.u.
TCTTCAGCCTTGCCCAACGTGGAGTCGACTACGCCCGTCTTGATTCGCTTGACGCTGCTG | 62.2 a.u.
CTACGGATCGCATCGCACGTTTGTTTACAATTGATGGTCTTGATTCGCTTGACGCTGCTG | 99.9 a.u.
CGTTTTTTTTCCCGACACGTGTCGGAGAAGAGTTTGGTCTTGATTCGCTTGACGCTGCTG | 1900 a.u.
ATGGATATATATGGACACGGGACATTATAACAACTTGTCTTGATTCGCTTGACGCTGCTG | 469 a.u.
CTAACGAAGGTTTGCACGGTGGGTGACAAGCCAAGTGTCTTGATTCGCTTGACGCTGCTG | 68.8 a.u.
CTAACGAAGGTTTGCATCGTGGGTGACAAGCCAAGTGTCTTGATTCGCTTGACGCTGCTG | 57.4 a.u.
TACGACGAGACTTGGCATGATCAAAGTGCAAAAGAAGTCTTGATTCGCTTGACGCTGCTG | 71.9 a.u.
ACTGGGCGCAACAAACACCTGATGTAACTCCTACCCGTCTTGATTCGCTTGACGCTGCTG | 156 a.u.
AAGATGGCAGACGACCACGTGTAGGATCCCTAGTTCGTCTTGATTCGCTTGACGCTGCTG | 697 a.u.
CGTCCTAGTGATTTTCACGTGCGCTCCATGAGGAAGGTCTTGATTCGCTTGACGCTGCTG | 966 a.u.
GCTTTCTAAAGCCGTCACGGCAATAGAAAATTGCGCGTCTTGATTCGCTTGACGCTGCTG | 87.6 a.u.

Series 3
Target: UBE2N UBC core domain (UniProt P61088)
Method: yeast two-hybrid
Sample: yeast
Setting: mostly zero background
Baseline: not given
Direction: higher = stronger interaction
B1: DZIP3 RING domain (UniProt Q86Y13); chain PDEEEEEEEPCVICHENLSPENLSVLPCAHKFHAQCIRPWLMQQGTCPTCRLHVLLPEEFP
B2: RNF121 RING domain (UniProt Q9H920); chain MPTKHLSDSVCAVCGQQIFVDVSEEGIIENTYRLSCNHVFHEFCIRGWCIVGKKQTCPYCKEKVDLKRMFS
B3: RNF19A RING domain (UniProt Q9NV58); chain ISKQIGDFIECPLCLLRHSKDRFPDIMTCHHRSCVDCLRQYLRIEISESRVNISCPECTERFNPHDIR
B4: TRIM62 RING domain (UniProt Q9BVG3); chain MACSLKDELLCSICLSIYQDPVSLGCEHYFCRRCITEHWVRQEAQGARDCPECRRTFAEPALAP
Residues (chain): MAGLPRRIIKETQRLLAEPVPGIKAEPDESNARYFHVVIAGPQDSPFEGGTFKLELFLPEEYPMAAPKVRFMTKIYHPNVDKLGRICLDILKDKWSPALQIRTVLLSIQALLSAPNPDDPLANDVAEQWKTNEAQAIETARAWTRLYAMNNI
Sequence | lacZ reporter activity
B1 (DZIP3 RING domain) | 0
GSDDEEIPFKCFICRQSFQNPVVTKCRHYFCESCALQHFRTTPRCYVCDQQTNGVFNPA (RNF113A RING domain (UniProt O15541)) | 0
B2 (RNF121 RING domain) | 0
B3 (RNF19A RING domain) | 0
KETIKKTTKPCPRCHVPVEKNGGCMHMKCPQPQCRLEWCWNCGCEWNRVCMG (PRKN RING domain (UniProt O60260)) | 0
PEDRESLKSACVVCLSSFKSCVFLECGHVCSCTECYRALPEPKKCPICRQAITRVIPLY (MUL1 RING domain (UniProt Q969V5)) | 14200
FDGDVDPDLKCALCHKVLEDPLTTPCGHVFCAGCVLPWVVQEGSCPARCRGRLSAKELN (PDZRN3 RING domain (UniProt Q9UPQ7)) | 0
KLRKLKEAMLCMVCCEEEINSTFCPCGHTVCCESCAAQLQSCPVCRSRVEHVQHVY (MYLIP RING domain (UniProt Q8WY64)) | 0
AVPSGLEENLCKICMDSPIDCVLLECGHMVTCTKCGKRMNECPICRQYVIRAVHVF (RFFL RING domain (UniProt Q8WZ73)) | 0
GSRLQEINDVCAICYHEFTTSARITPCNHYFHALCLRKWLYIQDTCPMCHQKVYIEDDIK (RNF139 RING domain (UniProt Q8WU17)) | 0
B4 (TRIM62 RING domain) | 0
NLSELTPYILCSICKGYLIDATTITECLHTFCKSCIVRHFYYSNRCPKCNIVVHQTQPLY (PCGF6 RING domain (UniProt Q9BYE7)) | 0

Series 4
Target: Ras GTPase-activating protein-binding protein 1, full length (G3BP1, Homo sapiens, UniProt Q13283)
Sequence of UniProt Q13283 (whole entry, looked up): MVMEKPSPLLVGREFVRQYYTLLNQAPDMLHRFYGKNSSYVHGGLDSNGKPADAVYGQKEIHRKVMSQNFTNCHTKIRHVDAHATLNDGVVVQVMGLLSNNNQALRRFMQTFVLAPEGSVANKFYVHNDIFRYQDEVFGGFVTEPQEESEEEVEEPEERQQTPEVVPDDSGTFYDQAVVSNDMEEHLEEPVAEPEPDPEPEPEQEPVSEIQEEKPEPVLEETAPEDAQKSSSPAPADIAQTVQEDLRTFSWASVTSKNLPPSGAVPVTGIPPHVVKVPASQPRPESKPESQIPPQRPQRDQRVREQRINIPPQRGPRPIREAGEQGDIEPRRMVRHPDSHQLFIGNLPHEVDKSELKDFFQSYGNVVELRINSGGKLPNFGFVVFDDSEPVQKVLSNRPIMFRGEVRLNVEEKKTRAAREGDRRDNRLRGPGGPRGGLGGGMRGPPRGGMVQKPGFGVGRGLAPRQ
Method: RNA Bind-n-Seq
Form: RNA
Sample: in vitro
Concentration: 200 nM
Setting: whole 134-nt RNA, ends assumed
Together with: 150 mM LiCl
Baseline: input library
Direction: higher = stronger binding
All molecules: 7-deaza-guanosine replaces G
Sequence | log2 enrichment
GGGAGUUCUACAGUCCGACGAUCCCUGUGCUACACAUCGUAUGUACCGAAUCGGGUUUUUUUGGUUUUUUUGGGUUUUUUUGGGAAAGUAUUAUGUUACGCCGUUCGGAUCUGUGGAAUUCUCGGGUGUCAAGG | -0.408
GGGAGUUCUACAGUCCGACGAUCUCCUGUGCUACACAUCGUAUGUACCGAAUCGGUUUUUUUGGUUUUUUUGGAAAAAAAGGAAAGUAUUAUGUUACGCCGUUCGGAUCUGCAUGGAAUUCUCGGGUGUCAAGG | -1.5
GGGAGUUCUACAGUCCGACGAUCGUCCUGUGCUACACAUCGUAUGUACCGAAUCGGGGAAAAAAAGGGGUGGGGUUUGGGGAAAGUAUUAUGUUACGCCGUUCGGAUCUGCACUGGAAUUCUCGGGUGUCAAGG | -0.353
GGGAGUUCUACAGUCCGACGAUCAAGUCCUGUGCUACACAUCGUAUGUACCGAAUCGGUUUUUUUGGAAAAAAAGGUGGAAAGUAUUAUGUUACGCCGUUCGGAUCUGCACUUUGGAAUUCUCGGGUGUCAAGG | -2.39
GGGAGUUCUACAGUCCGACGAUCUCAAGUCCUGUGCUACACAUCGUAUGUACCGAAUCGGUUUGGUUUUUUUGGAGGAAAGUAUUAUGUUACGCCGUUCGGAUCUGCACUUCCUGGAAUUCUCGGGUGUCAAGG | 0.482
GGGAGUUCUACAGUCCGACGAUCAAGUCCUGUGCUACACAUCGUAUGUACCGAAUCGGGGAGGGGUGGGGUUUUUGGGGAAAGUAUUAUGUUACGCCGUUCGGAUCUGCACUUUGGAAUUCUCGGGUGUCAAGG | 0.0815
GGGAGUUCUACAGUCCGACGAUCGCAGGAAGUAAAAACAAAUGGAAAUGCUUCGGAUAGUGGCAGGGGUGGGGGUUGCUAAGGAAAGGGUGGGAUGGGAGUGGAAAAAGAGUUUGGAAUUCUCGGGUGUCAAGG | 0.0636
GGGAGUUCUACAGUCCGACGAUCUGAACAGCUCUGCGCUUUUUGUUACUGUGGGGAAAAAAGUUCCUUAGGACAAGGAGACUUAAAACAAUUCAGAAUAACGCCUGGAUUUAUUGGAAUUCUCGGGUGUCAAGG | -2.02
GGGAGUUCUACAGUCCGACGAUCUCCUGUGCUACACAUCGUAUGUACCGAAUCGGGUUUUUUGGUUUUUUGGGUUUUUUGGGGAAAGUAUUAUGUUACGCCGUUCGGAUCUGCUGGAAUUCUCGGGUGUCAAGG | -0.802
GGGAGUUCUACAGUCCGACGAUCUGGGAGGUGGAUUUUGUUUAUUUUUUUAGCUCAUUUCCAGGGGUGGGAAUUUUUUUUUAAUAUGUGUCAUGAAUAAAGUUGUUUGUGAAAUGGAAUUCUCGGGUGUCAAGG | -0.25
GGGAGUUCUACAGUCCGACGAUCCCUGUGCUACACAUCGUAUGUACCGAAUCGGGCCCCCCCGGGCCCCCCCGGGCCCCCCCGGAAAGUAUUAUGUUACGCCGUUCGGAUCUGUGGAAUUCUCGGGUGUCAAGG | -0.119
